Assay results collected from several papers.
Each line is one published result; not all experiments were run side by side. Numbers after ± are the reported error.
Technique: steady-state kinetics
B1: UCK2 (Homo sapiens, UniProt Q9BZX2); chain MAGDSEQTLQNHQQPNGGEPFLIGVSGGTASGKSSVCAKIVQLLGQNEVDYRQKQVVILSQDSFYRVLTSEQKAKALKGQFNFDHPDAFDNELILKTLKEITEGKTVQIPVYDFVSHSRKEETVTVYPADVVLFEGILAFYSQEVRDLFQMKLFVDTDADTRLSRRVLRDISERGRDLEQILSQYITFVKPAFEEFCLPTKKYADVIIPRGADNLVAINLIVQHIQDILNGGPSKRQTNGCLNGYTPSRKRQASESSSRPH
B2: sacB Y439F (Priestia megaterium, UniProt D5DC07); chain KGNDSKDFNNSYGISHITRDNMVKIPQQQNSDQFKVPAFDESTIKNIASAKGKNASGNTIDLDVWDSWPLQNADGTVATYHGYQIVFALAGDPKDSNDTSVYLFYKKAGDKSIDSWKNAGRVFKDSDKFVPNDPHLKNQTQEWSGSGTLTKDGKVRLFYTDYSGKQYGKQTLTTAQVNMSQPNDNTLKVDGVEDYKSIFDGDGKIYQTVQQFIDEGGYDTGDNHTLRDPHYIEDNGHKYLVFEANTGTEDGYQGEDSLYNRAYYGGNNPFFQSEKKKLLEGSNKEKASLANGALGIIELNDDYTLKKVMKPLITSNTVTDEIERANIFKKDGKWYLFTDSRGSKMTIDGIGQDDVYMLGYVSNTLTGKYKPLNDTGLVLHMDLDPNDKTFTYSHFAVPQTKGDNVVITSFMTNRGFYEDNHSTFAPSFLVNIDGSKTSVVKDRVLEQGQLTVDED
B3: protein (Shewanella denitrificans, UniProt Q12KT8); chain MIHKLADVQSQNIGDNTKVWQFCVILAGAVIGRNCNICANSLIENDVVIGDNVTIKSGVQIWDGIHIQDDVFIGPNVTFTNDKQPRSKIYPDEYLKTIVKKGASIGANSTILPGILIGENAMVGAGAVITKNVPDNAIVIGNPGRITGYVEANTGVIMPSNNFELKLQMSKVKGVSLHKFHLVNDLRGNLSVGEFEKDIPFTPKRYFTVFGVPNKEVRGEHAHKECKQFLICVSGNCSVLVDDGENREEYVLDSIDKGIYLPPMTWGVQYKYSKDAVLLVFASHYYDSDDYIRDYSTFKQMRQN
B4: YdjH (Escherichia coli, UniProt P77493); chain MDNLDVICIGAAIVDIPLQPVSKNIFDVDSYPLERIAMTTGGDAINEATIISRLGHRTALMSRIGKDAAGQFILDHCRKENIDIQSLKQDVSIDTSINVGLVTEDGERTFVTNRNGSLWKLNIDDVDFARFSQAKLLSLASIFNSPLLDGKALTEIFTQAKARQMIICADMIKPRLNETLDDICEALSYVDYLFPNFAEAKLLTGKETLDEIADCFLACGVKTVVIKTGKDGCFIKRGDMTMKVPAVAGITAIDTIGAGDNFASGFIAALLEGKNLRECARFANATAAISVLSVGATTGVKNRKLVEQLLEEYEG
B5: enzyme (Thermobifida fusca, UniProt Q47RK4); chain MTDVYILDAVRTPFGRYGGALSGIRPDDLAAHVLRALAERSPGLDPAAVDDVFFGDANGAGEDNRNVARMAALLAGWPTSVPGVTLNRLCGSGMESVIAANRAIAVGDASLAVAGGVESMSRAPWVLPKPAQGFPTGHETLYSTTLGWRMVNPAMPEQWTVSLGESTEQVAATYGISRAEQDAFALRSHERAARAWAEGVFDAEITQIPGAELERDESIRETSAEKLAALKPAFRPDGTITAGNASPLNDGAAALLIGDAAAAERVGREPLARIVSRGVAAVDPDVFGIGPVQAAEIALRRAGIGWDDLSVVELNEAFAAQSLACLKLWPDLDPEIVNPNGGAIAIGHPLGASGARIVGTLAHELHRRGGGWGLAAICIGVGQGLAVVLHR
B6: asnB E349Q (Escherichia coli, UniProt P22106); chain CSIFGVFDIKTDAVELRKKALELSRLMRHRGPDWSGIYASDNAILAHERLSIVDVNAGAQPLYNQQKTHVLAVNGEIYNHQALRAEYGDRYQFQTGSDCEVILALYQEKGPEFLDDLQGMFAFALYDSEKDAYLIGRDHLGIIPLYMGYDEHGQLYVASEMKALVPVCRTIKEFPAGSYLWSQDGEIRSYYHRDWFDYDAVKDNVTDKNELRQALEDSVKSHLMSDVPYGVLLSGGLDSSIISAITKKYAARRVEDQERSEAWWPQLHSFAVGLPGSPDLKAAQEVANHLGTVHHEIHFTVQEGLDAIRDVIYHIETYDVTTIRASTPMYLMSRKIKAMGIKMVLSGQGSDEVFGGYLYFHKAPNAKELHEETVRKLLALHMYDCARANKAMSAWGVEARVPFLDKKFLDVAMRINPQDKMCGNGKMEKHILRECFEAYLPASVAWRQKEQFSDGVGYSWIDTLKEVAAQQVSDQQLETARFRFPYNTPTSKEAYLYREIFEELFPLPSAAECVPGGPSVACSSAKAIEWDEAFKKMDDPSGRAVGVHQSAYK
B7: Tat (Mus musculus, UniProt Q8QZR1); chain WNVRPSDMSNKTFNPIRAIVDNMKVKPNPNKTVISLSIGDPTVFGNLPTDPEVTQAMKDALDSGKYNGYAPSIGYLSSREEVASYYHCPEAPLEAKDVILTSGCSQAIELCLAVLANPGQNILIPRPGFSLYRTLAESMGIEVKLYNLLPEKSWEIDLKQLESLIDEKTACLVVNNPSNPCGSVFSKRHLQKILAVAERQCVPILADEIYGDMVFSDCKYEPMATLSTNVPILSCGGLAKRWLVPGWRLGWILIHDRRDIFGNEIRDGLVKLSQRILGPCTIVQGALKSILQRTPQEFYQDTLSFLKSNADLCYGALSAIPGLQPVRPSGAMYLMVGIEMEHFPEFENDVEFTERLIAEQSVHCLPATCFEYPNFFRVVITVPEVMMLEACSRIQEFCEQHY
B8: Tcur_2987 W263A (Thermomonospora curvata, UniProt D1A807); chain ACSEERAAGARPSATQTTGTATEPFHGPHQAGIATPPQAHAVFLGLDLRKGTGRKELGRLMRLLTDDARRLTQGRPALADPEPDLAPLPSRLTFTFGFGPGLFKAAGLEKQRPEGLRPLPPFKVDRLEDRWSGGDLLVQICCDDPITLAHALRMTVKDARAFTRVRWVQRGFRRSPGVQSSGATQRNLMGQLDGTVNPVPGTADFDQAVWVQDGPEWLRGGTTLVLRRIRMELEKADEADPAGKEFAVGRRLTSGAPLTGRHEHDEPDFDAVDSAGFPVIAENAHIRLAHVDSPRLRMLRRPYNYDEGLTADGRSDAGLLFAAYQADIDRQFIPVQRRLDEGGDLLNLWTTPIGSAVFAIPPGCDENGWIGQGLLG
B9: enzyme (Brachypodium distachyon, UniProt I1IPY7); chain MEQGKAALGWAARDASGHLSPYNFSRRVQKDDDVTIKVLFCGICHTDLHIIKNEWGNALYPIVPGHEVVGVVTDVGPGVKNFKAGETVGVGYFLDSCRTCDSCSKGHENYCPTLVLTSNGVDYDGATTQGGFSDVVVVNQDYVVRVPDTLPPDGAAPLLCAGVTVYSPMMQYGLNAPGKHLGVVGLGGLGHMAVKFGKAFGMKVTVISSSLRKREEALDRLGADDFLVSSDAEQMKAAAGAMDGIIDTVSAGHPIVPLLELLRPMGQMVVCGAPSEPLQLPAYAVITGGKRIAGNGVGSVRDCQAMLDFAGEHGITADVEVVKMDYVNTAVERLERNDVRYRFVIDVAGSLQQGGAA
B10: BaiA1 (Clostridium scindens, UniProt P07914); chain MKLVQDKITIITGGTRGIGFAAAKLFIENGAKVSIFGETQEEVDTALAQLKELYPEEEVLGFAPDLTSRDAVMAAVGTVAQKYGRLDVMINNAGITMNSVFSRVSEEDFKNIMDINVNGVFNGAWSAYQCMKDAKQGVIINTASVTGIYGSLSGIGYPTSKAGVIGLTHGLGREIIRKNIRVVGVAPGVVDTDMTKGLPPEILEDYLKTLPMKRMLKPEEIANVYLFLASDLASGITATTISVDGAYRP
B11: enzyme A178R/D177A/G159A/M179S/P184R (Levilactobacillus brevis, UniProt Q03Q85); chain MKVTVVGCTHAGTFAIKQILAEHPDAEVTVYERNDVISFLSCGIALYLGGKVADPQGLFYSSPEELQKLGANVQMNHNVLAIDPDQKTVTVEDLTNHAQTTESYDKLVMTSGSWPIVPKIPGIDSDRVKLCKNWAHAQALIEDAKEAKRITVIGAGYIAAELAEAYSTTGHDVTLIARSARVMRKYFDADFTDVIEQDYRDHGVQLALGETVESFTDSATGLTIKTDKNSYETDLAILCIGFRPNTDLLKGKVDMAPNGAIITDDYMRSSNPDIFAAGDSAAVHYNPTHQNAYIPLATNAVRQGILVGKNLVKPTVKYMGTQSSSGLALYDRTIVSTGLTLAAAKQQGLNAEQVIVEDNYRPEFMPSTEPVLMSLVFDPDTHRILGGALMSKYDVSQSANTLSVCIQNENTIDDLAMVDMLFQPNFDRPFNYLNILAQAAQAKVAQSVNA

Molecule	substrate	pH	temperature	setting	together with	kcat/Km [M⁻¹ s⁻¹]
B1 (UCK2)	O=c1ccn([C@@H]2O[C@H](CO)[C@@H](O)[C@H]2O)c(=O)[nH]1	pH 7.2	25 °C	KCl 100 mM	ATP 100–200 µM	90000
B2 (sacB Y439F)	OC[C@H]1O[C@@](CO)(O[C@H]2O[C@H](CO)[C@@H](O)[C@H](O)[C@H]2O)[C@@H](O)[C@@H]1O	pH 6.6	–	–	–	1980
B3 (protein)	Cc1cn([C@H]2C[C@H](O)[C@@H](COP(=O)(O)OP(=O)(O)O[C@H]3O[C@H](C)[C@H](O)[C@H](N)[C@H]3O)O2)c(=O)[nH]c1=O	pH 8.5	–	–	acetyl-CoA 2 mM	98000
B4 (YdjH)	OC[C@H]1O[C@H](CO)[C@@H](O)[C@@H]1O	pH 7.4	30 °C	KCl 100 mM	ATP 2.0 mM, MgCl2 5.0 mM	1.4 ± 0.2
B5 (enzyme)	CC(C)(COP(=O)(O)OP(=O)(O)OC[C@H]1O[C@@H](n2cnc3c(N)ncnc32)[C@H](O)[C@@H]1OP(=O)(O)O)[C@@H](O)C(=O)NCCC(=O)NCCSC(=O)CC(=O)O	pH 7.4	37 °C	–	–	1
B6 (asnB E349Q)	NC(=O)CC[C@H](N)C(=O)O	pH 8	37 °C	100 mM NaCl, glutaminase site	MgCl2; no ATP	450
B7 (Tat)	O=C(O)C(=O)Cc1ccc(O)cc1	pH 7	38 °C	–	PLP	22700
B8 (Tcur_2987 W263A)	Nc1c(S(=O)(=O)O)cc(Nc2cccc(S(=O)(=O)CCOS(=O)(=O)O)c2)c2c1C(=O)c1ccccc1C2=O	pH 3	–	sigmoidal kinetics	H2O2 1 mM	1.9e+06
B9 (enzyme)	NC(=O)C1=CN([C@@H]2O[C@H](COP(=O)(O)OP(=O)(O)OC[C@H]3O[C@@H](n4cnc5c(N)ncnc54)[C@H](OP(=O)(O)O)[C@@H]3O)[C@@H](O)[C@H]2O)C=CC1	pH 5.35	23 °C	cofactor varied	–	4.96e+06
B10 (BaiA1)	C[C@H](CCC(=O)SCCNC(=O)CCNC(=O)[C@H](O)C(C)(C)COP(=O)(O)OP(=O)(O)OC[C@H]1O[C@@H](n2cnc3c(N)ncnc32)[C@H](O)[C@@H]1OP(=O)(O)O)[C@H]1CC[C@H]2[C@@H]3[C@H](O)C[C@@H]4C[C@H](O)CC[C@]4(C)[C@H]3CC[C@]12C	pH 8.7	37 °C	–	NAD+	15400
B11	NC(=O)C1=CN([C@@H]2O[C@H](COP(=O)(O)OP(=O)(O)OC[C@H]3O[C@@H](n4cnc5c(N)ncnc54)[C@H](O)[C@@H]3O)[C@@H](O)[C@H]2O)C=CC1	pH 7.5	37 °C	per site	–	11000 ± 2000
